Assay results from different studies.
Each line is one published result; not all experiments were run side by side.
UCHL1: Ubiquitin carboxyl-terminal hydrolase isozyme L1 (UCHL1, Homo sapiens, UniProt P09936)
Sequence of UniProt P09936 (whole entry, looked up): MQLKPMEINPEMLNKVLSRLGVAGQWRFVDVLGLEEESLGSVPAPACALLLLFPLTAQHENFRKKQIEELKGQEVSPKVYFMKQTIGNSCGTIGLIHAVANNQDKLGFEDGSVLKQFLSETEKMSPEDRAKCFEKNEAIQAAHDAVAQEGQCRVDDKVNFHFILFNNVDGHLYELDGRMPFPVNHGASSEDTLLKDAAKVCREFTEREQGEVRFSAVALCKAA

CN(C)C(=O)c1cc2cnc(Nc3ccc(N4CCNCC4)cn3)nc2n1C1CCCC1  AUC(0-last) (human, normal renal function, plasma; oral, 400 mg, single dose, adjusted geometric mean): 5500 ng·h/mL
Cc1noc(C)c1-c1cc(C(O)(c2ccccn2)c2ccccn2)c2nc(C3CC3)[nH]c2c1  AUC(0-last) (human, fasted, plasma; oral, 9 mg once daily, cycle 1 day 8): 4490 ng·h/mL
CN1CC[C@@H](c2c(O)cc(O)c3c(=O)cc(-c4ccc(C(F)(F)F)cc4Cl)oc23)[C@@H]1CO  AUC(0-last) (noncompartmental; human patients, plasma; oral, 100 mg continuous, cycle 1, after day 1): 2220 ng·h/mL
Cn1c(=O)oc2ccc(-c3ccc(C[C@@H](C#N)NC(=O)[C@@H]4CNCCCO4)cc3)cc21  AUC(0-last) (human, severe renal impairment, plasma; oral, 25 mg single dose, mean): 2750 ng·h/mL
Cc1cc(C)c(CNC(=O)c2cc(Cl)c3c(c2C)O[C@@](C)([C@H]2CC[C@H](N(C)C)CC2)O3)c(=O)[nH]1  AUC(0-last) (item: total radioactivity; human, plasma; oral, 200 mg): 23800 ng eq·h/mL
Cc1ccccc1NC(=O)C(C#N)=Cc1ccc2c(c1)OCCO2  labelling (UCHL1; covalent, intact protein LC-MS; 12.5 µM): 10.4%
O=C1CC[C@H](N2Cc3cc(N4CCN(CC5CCN(c6ccc([C@@H]7c8ccc(O)cc8CC[C@@H]7c7ccccc7)cc6)CC5)CC4)ccc3C2=O)C(=O)N1  AUC(0-last) (human, plasma; oral, 200 mg, with: rosuvastatin 10 mg): 15400 ng·h/mL
Cc1cc(Nc2cc3ncccc3c(N[C@@H]3C[C@H]4CC[C@@H](C3)N4CCC#N)n2)n[nH]1  AUC(0-last) (human, plasma; 300 mg single dose, mean): 25.6 ng·h/mL
O=C(c1nc2n(n1)[C@H](c1ccccc1)C[C@@H]2F)C1CC1  AUC(0-last) (geometric LS mean; human, fasted, plasma; oral, 75 mg single dose): 12900 ng·h/mL
CCOc1c([C@H](C)n2nc(C)c3c(N)ncnc32)cc(Cl)c(F)c1[C@@H]1CNC(=O)C1  AUC(0-last) (human patients, plasma; oral, 5 mg once daily, cycle 1 day 15): 7.13 µM·h
CC(C)n1nc(-c2ccc3oc(N)nc3c2)c2c(N)ncnc21  AUC(0-last) (human, plasma; oral, 30 mg once weekly, cycle 1 day 15): 2860 ng·h/mL
O=C(/C=C/CN1CCCCC1)Nc1cc2c(Nc3ccc(F)c(Cl)c3)ncnc2cc1O  AUC(0-last) (human, plasma; oral, 30 mg): 317 ng·h/mL
COc1ccc(Cc2cnc(NC(=O)CCl)s2)cc1  labelling (UCHL1; covalent, intact protein LC-MS; 12.5 µM): 76.7%
CC(F)(F)c1cc(F)ccc1-c1sc2cc(O)ccc2c1Oc1ccc(/C=C/C(=O)O)cc1  AUC(0-last) (human patients, serum; oral, 300 mg twice daily, cycle 1 day 28, regular meal, mean): 16400 ng·h/mL
C=CC(=O)N(C)CCOc1c(N)ncnc1-c1cc(F)cc(NC(=O)c2ccc(C3CC3)cc2F)c1C  AUC(0-last) (human, fasted, whole blood; oral, 60 mg single dose, food effect study, mean): 192 ng·h/mL
C[C@@H](N)c1cc(Cl)ccc1Cn1c(=S)[nH]c(=O)c2[nH]ccc21  AUC(0-last) (human, both sexes, matched healthy controls, plasma; oral, 2.5 mg single dose, geometric mean): 0.264 µM·h
CC(C)NC(=O)COc1cccc(-c2nc(Nc3ccc4[nH]ncc4c3)c3ccccc3n2)c1  AUC(0-last) (human male, plasma; oral, 200 mg once daily, day 12, fed, geometric mean, with: dabigatran etexilate): 12000 ng·h/mL
COC(=O)N[C@@H](C)CNc1nccc(-c2cn(C(C)C)nc2-c2cc(Cl)cc(NS(C)(=O)=O)c2F)n1  AUC(0-last) (human, plasma; oral, 50 mg, single dose alone; geometric mean): 2040 ng·h/mL

A few entries again:
COC(=O)N[C@@H](C)CNc1nccc(-c2cn(C(C)C)nc2-c2cc(Cl)cc(NS(C)(=O)=O)c2F)n1  AUC(0-last) (human, plasma; oral, 50 mg, single dose alone; geometric mean): 2040 ng·h/mL
O=C(c1nc2n(n1)[C@H](c1ccccc1)C[C@@H]2F)C1CC1  AUC(0-last) (geometric LS mean; human, fasted, plasma; oral, 75 mg single dose): 12900 ng·h/mL
